Assay results of several laboratories.
Protocols differ between the studies behind these lines. Numbers after ± are the reported error.
ALB: Albumin (ALB, Bos taurus, UniProt P02769)
gdpP residues 84-659: gdpP, residues 84-659 (Bacillus subtilis, UniProt P37484)
rhlR: HTH-type quorum-sensing regulator RhlR (rhlR, Pseudomonas aeruginosa, UniProt P54292)
Alpha-amylase: Alpha-amylase (Bacillus subtilis, UniProt P00691)

SMILES = O=C(O)COc1ccc(Cl)cc1; target = Chloride channel protein (Torpedo marmorata, UniProt P21564, C212S); test = chloride current, inhibitor, inside-out patch clamp; conditions = 5 mM, low extracellular chloride, unit not given; scale = baseline: 100 mM extracellular chloride; measurement = open channel affinity increase; result = 3 to 4
SMILES = Oc1ccc(O)c2ccccc12; target = Serine/threonine-protein kinase PAK 1, PBD (PAK1, Homo sapiens, UniProt Q13153); test system = HeLa; conditions = 20 µM, 1.5 h; measurement = FRET efficiency; result = decreased
SMILES = NC(CNC(CNC(CC(=O)O)C(=O)O)C(=O)O)C(=O)O (stereo not shown); target = OXA-48; test = enzyme activity, inhibitor; conditions = enzyme 1 nM, added: nitrocefin 30 µM; measurement = IC50; result = no effect
SMILES = CC1=C(C)C(Oc2c(F)cc3c(C)cc(=O)oc3c2F)OC1=O (racemic); target = RMS3 (Lathyrus oleraceus, UniProt A0A109QYD3); test = enzyme activity, substrate, DiFMU release; conditions = pre-steady state; measurement = K1/2; result = 0.49 µM
SMILES = Cc1cc(C)nc(Sc2nc3sccn3c2[N+](=O)[O-])n1; target = Procathepsin L (CTSL, Homo sapiens, UniProt P07711); test = FRET; measurement = Hill slope; result = 1.33
SMILES = CCOc1cccc2c1[O][Pt-2]1([Cl])[N+](=C2)Cc2cccc[n+]21 (stereo not shown); target = ALB; test = binding to BSA; measurement = binding free energy; result = -10 kcal/mol
SMILES = CC(=O)N[C@@H](Cc1c[nH]c2ccccc12)C(=O)N[C@@H](CCC(=O)O)C(=O)N[C@@H](Cc1c[nH]cn1)C(=O)N[C@@H](CC(=O)O)C(=O)Nc1ccc2c(C)cc(=O)oc2c1; target = Caspase-1 (CASP1, Homo sapiens, UniProt P29466); test = substrate cleavage, substrate, fluorogenic AMC release; conditions = enzyme 0.25 activity units/µL; measurement = Vmax; result = 3500 ± 121 RFU/min
SMILES = C[C@H](NC(=O)[C@@H]1CCCN1C(=O)[C@@H](N)Cc1ccc(O)cc1)C(=O)O; target = Aminopeptidase N (ANPEP, Sus scrofa, UniProt P15145); test = endomorphin-1 degradation, inhibitor, RP-HPLC; conditions = 0 to 30 min, pH 7.4, 37 °C, added: endomorphin-1; measurement = degradation rate constant; result = 1.58 ± 0.05 min⁻¹
SMILES = O=P1(O)OC[C@H]2O[C@@H](n3cnc4cncnc43)[C@H](O)[C@@H]2OP(=O)(O)OC[C@H]2O[C@@H](n3cnc4cncnc43)[C@H](O)[C@@H]2O1; target = gdpP residues 84-659; test = substrate, HPLC; conditions = 100 µM, 37 °C, upper limit if undegraded 24 h, added: enzyme 1 µM; measurement = degradation rate; result = 0.11 ± 0.01 mol/min/mol enzyme
SMILES = O=C(NC1CCSC1=O)C1CCC1 (stereo not shown); target = rhlR; test = reporter gene, agonist, rhlI-lacZ reporter; test system = Escherichia coli; measurement = maximum activation; result = 110%
SMILES = CCOC(=O)/C=C/[C@H](C[C@@H]1CCNC1=O)NC(=O)[C@H](Cc1ccccc1)NC(=O)[C@H](COC(C)(C)C)NC(=O)OCc1ccccc1; target = Genome polyprotein, 3C protease (Saffold virus, UniProt C0MHL9); test = protease activity, cell-based reporter; measurement = FLuc reporter expression; result = no effect
SMILES = Cc1cc(C2=CCN(CC3OCCO3)CC2)cc([N+](=O)[O-])c1N; target = 5-hydroxytryptamine receptor 2A (HTR2A, Homo sapiens, UniProt P28223); test = calcium mobilisation, agonist; scale = baseline: 5-HT; measurement = Emax; result = 23 ± 1.37%
SMILES = CC(C)P(=[Se])(NP(=[Se])(C(C)C)C(C)C)C(C)C; target = Alpha-amylase; test = binding, Van't Hoff analysis; conditions = pH 6.8, 298–310 K; measurement = ΔS; result = 0.818 kJ/mol/K
SMILES = CS(=O)(=O)NC(=O)c1ccc(NC(=O)c2cccc(CC3CCCCC3)n2)c(Cc2ccccc2)c1; target = Capsid scaffolding protein, protease domain (Human herpesvirus 8 type P, UniProt Q2HRB6, R82Q); test = enzyme activity, inhibitor; conditions = pH 8; scale = baseline: mutant over wild type; measurement = IC50 ratio; result = 3 to 4 fold
SMILES = CC(C)OC(=O)[C@H](C)NP(=S)(Oc1ccccc1)c1ccccc1 (stereo partly shown); target = Carboxypeptidase Y (Saccharomyces cerevisiae, UniProt P00729); test = substrate, LC-MS/MS; conditions = 5 µM, added: carboxypeptidase Y 60 ng/mL; measurement = DNS-NH2 formation rate constant; result = 0.011 min⁻¹
SMILES = Cc1ccc2c(n1)c(-c1cccc(S(C)(=O)=O)c1)c(C)n2C/C(F)=C/CN; target = Lysyl oxidase homolog 2 (LOXL2, Homo sapiens, UniProt Q9Y4K0); test = inhibitor, activity-based probe; test system = healthy human subjects; conditions = oral, 100 mg single dose, 2 h, single ascending dose; measurement = peak inhibition; result = > 85%
SMILES = NC(=NN=Cc1cccs1)[S][Ru+]([Cl])([P](c1ccccc1)(c1ccccc1)c1ccccc1)[P](c1ccccc1)(c1ccccc1)c1ccccc1.[Cl-]; target = ALB; test = fluorescence quenching; measurement = quenching rate constant; result = 8.04e+12 M⁻¹ s⁻¹
SMILES = Nc1nc2ncc(CNc3ccc(C(=O)N[C@@H](CCC(=O)NCCOCCOCCNC(=O)CN4CCN5CCN(CC4)CC(=O)[O][Al]([18F])[O]C(=O)C5)C(=O)O)cc3)nc2c(=O)[nH]1; target = Folate receptor alpha (FOLR1, Homo sapiens, UniProt P15328); test = radioligand binding; test system = KB xenograft homogenate; conditions = concentration not given, added: self-block 5 µM; scale = baseline: total binding; measurement = nondisplaceable binding; result = < 1%
SMILES = Nc1nc2c(O)cc(N3CC3)cc2s1; target = Histone-lysine N-methyltransferase, H3 lysine-36 specific, SET domain (NSD1, Homo sapiens, UniProt Q96L73); test = covalent inhibitor, mass spectrometry; conditions = 30 °C, SET domain; measurement = kinact/KI; result = 3.5 M⁻¹ s⁻¹
SMILES = O=C1SCCC1NC(C(=O)NCc1ccccc1)C1CC1 (stereo not shown); target = Thiosulfate sulfurtransferase (TST, Homo sapiens, UniProt Q16762); test = activator; conditions = 34.2 µM, versus sodium thiosulfate, added: KCN 60 mM; measurement = Vmax; result = 0.48 ± 0.02 mM/s
SMILES = O[C@@H]1[C@@H](O)[C@H](O[C@@H]2OC[C@@H](O)[C@H](O)[C@H]2O)C[C@H]2N[C@@H]12; target = Exo-1,4-beta-xylosidase xlnD (xlnD, Emericella nidulans, UniProt Q5BAS1); test = covalent inhibitor; test system = Aspergillus nidulans; conditions = pH 4.5; measurement = kinact/Ki; result = 66.7 M⁻¹ s⁻¹
SMILES = O=C(N[C@H]1CCOC1=O)C1CCCC1; target = rhlR; test = reporter gene, agonist; test system = Escherichia coli reporter strain; conditions = 100 µM; scale = baseline: BHL 900 µM; measurement = activation; result = 91%
SMILES = CCCN1CCc2cccc3c2[C@H]1Cc1ccc(O)c(O)c1-3; target = Carbamate kinase (Giardia intestinalis, UniProt A8BB85); test = enzyme activity, inhibitor, luminescence, ATP detection; test system = Giardia lamblia; measurement = maximal inhibition; result = 89.9%
SMILES = Cc1cc(S(=O)(=O)Nc2ncccn2)c(F)cc1N(C)C1CCN([C@H](C)c2ccccc2)CC1; target = Sodium channel protein type 8 subunit alpha (SCN8A, Homo sapiens, UniProt Q9UQD0); test = ion current, inhibitor, automated patch clamp; scale = baseline: resting (-120 mV) over inactivated state; measurement = IC50 ratio; result = > 1000 fold
SMILES = O=C([N-]c1nc2ccccc2[nH]1)c1cnccn1.[Cl-].[Ru+2].c1ccc(P(c2ccccc2)c2ccccc2)cc1.c1ccc(P(c2ccccc2)c2ccccc2)cc1; target = ALB; test = tryptophan fluorescence quenching; conditions = concentration not given; measurement = number of binding sites; result = 0.93
SMILES = Nc1nc(N)c2ncn([C@@H]3O[C@@H]4COP(=O)(O)O[C@H]5[C@@H](O)[C@H](n6cnc7c(N)nc(N)nc76)O[C@@H]5COP(=O)(O)O[C@H]4[C@H]3O)c2n1; target = gdpP residues 84-659; test = substrate, HPLC; conditions = 100 µM, 37 °C, upper limit if undegraded 24 h, added: enzyme 1 µM; measurement = degradation rate; result = ≤ 0.001 mol/min/mol enzyme
SMILES = FC(F)(F)c1ccc(Nc2c3c(nc4ccccc24)CCCC3)cc1; target = Cholinesterase (BCHE, Equus caballus, UniProt P81908); test = enzyme activity, inhibitor; conditions = 100 µM; measurement = inhibition; result = -23.5%
SMILES = Cn1cc(-c2cccc(CN3CCC4(CC3)COc3c4ccc4c3CN([C@H]3CCC(=O)NC3=O)C4=O)c2)cn1; target = Eukaryotic peptide chain release factor GTP-binding subunit ERF3A (GSPT1, Homo sapiens, UniProt P15170); test = degrader, HiBiT; test system = HEK293; conditions = 6 h; measurement = Dmax; result = < 20%
SMILES = CN1/C(=C/C=C/C=C/C2=[N+](CCCCCC(=O)NCCCCCCCCN3[C@H]4[C@H](O)[C@@H](O)[C@H](O[C@@H]5OC[C@@H](O)[C@H](O)[C@H]5O)C[C@H]43)c3ccccc3C2(C)C)C(C)(C)c2ccccc21 (stereo partly shown); target = Exo-1,4-beta-xylosidase xlnD (Aspergillus niger, UniProt O00089); test = activity-based probe labelling; test system = Aspergillus niger, secretome; measurement = optimal labelling pH; result = ~4.5
SMILES = CC(=O)NC(Cc1ccc(Br)c(Cl)c1)C(=O)N[C@@H](C)C(=O)N1CCC[C@H]1C(=O)N1CCC[C@H]1C(=O)N[C@@H](CCC(=O)O)C(=O)N[C@@H](Cc1c[nH]cn1)C(=O)N[C@@H](CO)C(=O)N[C@H](C(=O)N[C@@H](C)C(N)=O)[C@@H](C)OP(=O)(O)O (stereo partly shown); target = Cyclin-dependent kinase 18 (CDK18, Homo sapiens, UniProt Q07002); test = enzyme activity, inhibitor; conditions = 10 µM; measurement = inhibition; result = 5.59%
SMILES = O=C(Nc1cccc(-c2nn[nH]n2)c1)c1cc(-c2ccsc2)cc(C(F)(F)F)c1; target = CTX-M-27 beta-lactamase; test = surface plasmon resonance; measurement = Kd/Ki difference; result = 2 to 3 fold
SMILES = CCN(Cc1ccccc1)C(=O)CCc1nc(CN2CCN(C(=O)Cc3ccc(OC)c(OC)c3)CC2)no1; target = Potassium voltage-gated channel subfamily KQT member 2 (KCNQ2, Homo sapiens, UniProt O43526); test = potassium current, whole-cell patch clamp; test system = CHO, stable; conditions = 10 µM; measurement = activation V1/2; result = -50.4 mV
SMILES = CC(C)P(=S)(NP(=S)(C(C)C)C(C)C)C(C)C; target = Alpha-amylase; test = tryptophan fluorescence, fluorescence quenching; conditions = 0.20 mg/mL, 298 K; measurement = maximum emission wavelength; result = 335 nm
SMILES = CCCn1c(SCC(=O)N2CCc3cc(CC)ccc32)nnc1-c1cccnc1; target = Orco (Drosophila melanogaster, UniProt Q9VNB5); test = calcium mobilization, agonist; test system = HEK293 expressing Orco; scale = baseline: VUAA1 maximum; measurement = efficacy; result = 99%

For quick reference, copied from above:
SMILES = CCCn1c(SCC(=O)N2CCc3cc(CC)ccc32)nnc1-c1cccnc1; target = Orco (Drosophila melanogaster, UniProt Q9VNB5); test = calcium mobilization, agonist; test system = HEK293 expressing Orco; scale = baseline: VUAA1 maximum; measurement = efficacy; result = 99%
SMILES = NC(CNC(CNC(CC(=O)O)C(=O)O)C(=O)O)C(=O)O (stereo not shown); target = OXA-48; test = enzyme activity, inhibitor; conditions = enzyme 1 nM, added: nitrocefin 30 µM; measurement = IC50; result = no effect
SMILES = O=P1(O)OC[C@H]2O[C@@H](n3cnc4cncnc43)[C@H](O)[C@@H]2OP(=O)(O)OC[C@H]2O[C@@H](n3cnc4cncnc43)[C@H](O)[C@@H]2O1; target = gdpP residues 84-659; test = substrate, HPLC; conditions = 100 µM, 37 °C, upper limit if undegraded 24 h, added: enzyme 1 µM; measurement = degradation rate; result = 0.11 ± 0.01 mol/min/mol enzyme
SMILES = Nc1nc(N)c2ncn([C@@H]3O[C@@H]4COP(=O)(O)O[C@H]5[C@@H](O)[C@H](n6cnc7c(N)nc(N)nc76)O[C@@H]5COP(=O)(O)O[C@H]4[C@H]3O)c2n1; target = gdpP residues 84-659; test = substrate, HPLC; conditions = 100 µM, 37 °C, upper limit if undegraded 24 h, added: enzyme 1 µM; measurement = degradation rate; result = ≤ 0.001 mol/min/mol enzyme
